Literature values, collected from citations in different studies.
Each line is one published result; not all experiments were run side by side. Numbers after ± are the reported error.
Sequence of UniProt P04191 (whole entry, looked up): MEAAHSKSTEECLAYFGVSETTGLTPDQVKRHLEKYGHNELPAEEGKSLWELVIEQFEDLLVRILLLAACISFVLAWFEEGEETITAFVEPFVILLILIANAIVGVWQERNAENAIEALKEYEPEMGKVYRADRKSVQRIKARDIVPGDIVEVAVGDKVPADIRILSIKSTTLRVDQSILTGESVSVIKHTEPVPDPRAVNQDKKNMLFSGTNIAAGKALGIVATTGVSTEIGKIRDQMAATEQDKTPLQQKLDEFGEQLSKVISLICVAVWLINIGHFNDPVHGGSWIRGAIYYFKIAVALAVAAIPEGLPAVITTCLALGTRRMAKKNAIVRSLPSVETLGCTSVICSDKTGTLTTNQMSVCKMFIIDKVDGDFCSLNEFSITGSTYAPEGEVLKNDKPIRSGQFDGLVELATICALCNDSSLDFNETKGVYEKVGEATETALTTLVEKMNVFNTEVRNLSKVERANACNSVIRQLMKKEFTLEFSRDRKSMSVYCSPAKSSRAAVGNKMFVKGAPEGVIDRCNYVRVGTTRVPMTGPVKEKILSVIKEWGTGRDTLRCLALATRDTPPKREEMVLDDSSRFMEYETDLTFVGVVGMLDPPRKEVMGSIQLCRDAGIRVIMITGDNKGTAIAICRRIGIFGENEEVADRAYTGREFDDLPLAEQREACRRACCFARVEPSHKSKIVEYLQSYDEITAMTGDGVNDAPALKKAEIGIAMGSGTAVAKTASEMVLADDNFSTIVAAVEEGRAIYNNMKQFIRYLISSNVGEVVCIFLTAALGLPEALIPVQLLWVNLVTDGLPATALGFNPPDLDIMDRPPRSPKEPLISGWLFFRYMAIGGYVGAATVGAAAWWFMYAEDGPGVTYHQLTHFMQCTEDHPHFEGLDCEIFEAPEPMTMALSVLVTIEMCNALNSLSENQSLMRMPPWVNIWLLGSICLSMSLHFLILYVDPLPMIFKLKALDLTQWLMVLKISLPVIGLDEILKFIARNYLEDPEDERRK

Molecule | target or system | test | test system | conditions | measurement | result
KWIKIWFIWRRIKWRK | Klebsiella pneumoniae |  | peptide |  | MIC | 46.9 µg/mL
FPTIPLSR |  | isocratic RP-HPLC, C18 column | peptide, water/acetonitrile, 0.1% TFA | 25 °C | retention coefficient S | 19.8
pegcetacoplan |  |  | New Zealand white rabbit | subcutaneous, 1, 7, 28 mg/kg/day daily, 6 months | NOAEL | > 28 mg/kg/day
ifinatamab deruxtecan |  |  | patients with advanced solid tumours | dose not given, mCRPC cohort | objective response rate | 33%
sarcolipin | ATP2A1 (Oryctolagus cuniculus, UniProt P04191) | enzyme activity |  |  | Vmax | 2.9 ± 0.1 µmol/min/mg
indirubin-3'-monoxime |  | regression of existing vessels | zebrafish embryos |  | IC50 | > 30 µM
MWIWKKPRWKGRRLKKKEEKEELGDYIYLYCKVKVRLFGFLPYFISKTA | Escherichia coli |  | peptide |  | MIC | 12.5 µM
LFDNAMLR |  | isocratic RP-HPLC, C18 column | peptide, water/acetonitrile, 0.1% TFA | 25 °C | retention coefficient S | 17.4

Excerpt of the above:
Molecule | target or system | test | test system | conditions | measurement | result
ifinatamab deruxtecan |  |  | patients with advanced solid tumours | dose not given, mCRPC cohort | objective response rate | 33%
